Assay results gathered from unrelated publications.
Parts stem from different laboratories: compare values within a part only. Positions count from the first letter of the parent shown.

Block 1
Target: ABI1, truncated, D143A, DHFR fusion (Arabidopsis thaliana)
Technique: DHFR PCA, deep sequencing
Sample: yeast
Notes: methotrexate growth selection, single substitutions
With: (+)-ABA 58 µM
Baseline: wild-type fitted maximum
Direction: higher = stronger binding
Parent: PYL1, truncated, DHFR fusion (Arabidopsis thaliana); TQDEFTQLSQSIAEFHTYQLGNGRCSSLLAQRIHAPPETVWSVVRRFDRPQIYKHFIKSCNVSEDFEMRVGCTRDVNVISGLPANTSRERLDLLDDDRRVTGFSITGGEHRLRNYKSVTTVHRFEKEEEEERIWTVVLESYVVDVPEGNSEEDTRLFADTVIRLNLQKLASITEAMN
For `S117C`, “relative binding score” read 37.9%.
`F103R`: “relative binding score” -11.5%.
`K168L`: “relative binding score” 39.9%.
For `H122Q`, “relative binding score” read 29.7%.
`I33V`: “relative binding score” 77.4%.
`T120Q`: “relative binding score” 24.1%.
`E38D`: “relative binding score” 91.4%.
`D97K`: “relative binding score” 100%.
For `L156N`, “relative binding score” read 71.6%.
`E130G`: “relative binding score” 91.7%.
`S11H`: “relative binding score” 71.8%.
`H55M` — result for “relative binding score”: 90.4%.
`W134G` — result for “relative binding score”: 92.1%.
Under “relative binding score”, `E109W` is recorded as 32.2%.
Under “relative binding score”, `S87I` is recorded as 14.2%.
`T135L`: “relative binding score” 1.49%.

Block 2
Target: Ras GTPase-activating protein-binding protein 1, RRM domain (G3BP1, Homo sapiens, UniProt Q13283)
Sequence of UniProt Q13283 (whole entry, looked up): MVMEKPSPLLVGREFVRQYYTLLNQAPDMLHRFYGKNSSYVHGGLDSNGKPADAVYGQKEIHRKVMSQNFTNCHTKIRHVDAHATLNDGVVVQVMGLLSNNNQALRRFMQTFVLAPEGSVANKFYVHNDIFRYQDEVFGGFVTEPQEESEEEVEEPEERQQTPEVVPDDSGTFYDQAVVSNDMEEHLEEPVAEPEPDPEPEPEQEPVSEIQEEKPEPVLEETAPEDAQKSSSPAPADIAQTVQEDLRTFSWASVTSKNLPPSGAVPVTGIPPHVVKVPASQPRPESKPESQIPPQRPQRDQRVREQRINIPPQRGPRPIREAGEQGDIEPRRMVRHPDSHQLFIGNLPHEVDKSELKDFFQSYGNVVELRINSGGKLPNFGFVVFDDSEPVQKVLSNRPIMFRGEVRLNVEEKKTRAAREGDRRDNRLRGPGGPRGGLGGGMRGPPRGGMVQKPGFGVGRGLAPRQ
Technique: RNA Bind-n-Seq
Molecule type: RNA
Sample: in vitro
Tested at: 1 µM
Notes: whole 134-nt RNA, ends assumed
With: 150 mM KCl
Baseline: input library
Direction: higher = stronger binding
For `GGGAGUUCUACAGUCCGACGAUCUCCUCAAGUCCUGUGCUACACAUCGUAUGUACCGAAUCGGGAGGAGGGGAGGAAAGUAUUAUGUUACGCCGUUCGGAUCUGCACUUCCAGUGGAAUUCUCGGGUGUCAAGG`, the log2 enrichment was -0.201.
For `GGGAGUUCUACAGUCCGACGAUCGCAGGAAGUAAAAACAAAUGGAAAUGCUUCGGAUAGUGGCAGGGGUGGGGGUUGAUAAGGAAAGGGUGGGAUGGGAGUGGGUAAAGAGUUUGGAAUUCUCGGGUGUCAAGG`, the log2 enrichment was 0.705.
With `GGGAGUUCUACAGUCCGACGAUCCAAGUCCUGUGCUACACAUCGUAUGUACCGAAUCGGGAAAAAAAGGGUGGGAGGGAAAGUAUUAUGUUACGCCGUUCGGAUCUGCACUUCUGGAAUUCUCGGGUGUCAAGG` the log2 enrichment was 0.844.
`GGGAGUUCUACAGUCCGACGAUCCCUCAAGUCCUGUGCUACACAUCGUAUGUACCGAAUCGGGGUGGGUGGGUGGAAAGUAUUAUGUUACGCCGUUCGGAUCUGCACUUCCAGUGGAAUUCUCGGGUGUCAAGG` has a log2 enrichment of 0.409.
With `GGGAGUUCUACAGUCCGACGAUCCCUGUGCUACACAUCGUAUGUACCGAAUCGGGGUUUGGGGUUUUUGGGGAAAAAAAGGGGAAAGUAUUAUGUUACGCCGUUCGGAUCUGCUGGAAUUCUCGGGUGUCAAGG` the log2 enrichment was 1.2.
`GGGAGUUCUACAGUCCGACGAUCUUGUGAUAGCCAAGUGGGACUACACCGCCCAGCAGGACCAGGAGCUGGACAUCAAGAAGAACGAGCGGCUGUGGUUGCUGGACGACUCCAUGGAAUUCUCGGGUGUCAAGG` has a log2 enrichment of -0.288.
`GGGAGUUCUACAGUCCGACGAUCGCAGGAAGUAAAAACAAAUGGAAAUGCUUCGGAUAGUGGCAGGGGUGGGGGUUCCUAAGGAAAGGGUGGGAUGGGAGUGGGUAAAGAGUUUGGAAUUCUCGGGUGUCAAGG` has a log2 enrichment of 0.839.
`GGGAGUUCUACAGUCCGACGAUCUGGGAGGUGGAUUUGGUUUAUUUUUUUAGCUCAUUUCCAGGGGUGGGAAUUUUUUUUUAAUAUGUGUCAUGAAUAAAGUUGUUUUUGAAAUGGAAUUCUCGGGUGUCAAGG` gave a log2 enrichment of 1.68.
`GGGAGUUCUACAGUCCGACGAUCUAACUUUAGAGGAGGAUCUGAUGGAUAUGGCAGUGGACGUGGAUUUGGGGAUGGCUAUCAUGGGUAUGGAGGAGGACCUGGAGGUGGCAAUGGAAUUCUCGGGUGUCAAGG` gave a log2 enrichment of -0.45.
The log2 enrichment of `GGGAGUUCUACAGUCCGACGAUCUGGCCCUGGUGGCAUGCGGGGAGGAAGAGGUGGUCUCAUGGAUCGUGGUGGUCCCGGUGGAAUGUUCAGAGGUGGCCGUGGUGGAGACAGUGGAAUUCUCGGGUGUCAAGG` is reported as 0.959.
For `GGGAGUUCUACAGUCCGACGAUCGUCCUGUGCUACACAUCGUAUGUACCGAAUCGGGAAAAAGGGAAAAAGGGAAAAAGGGAAAGUAUUAUGUUACGCCGUUCGGAUCUGCACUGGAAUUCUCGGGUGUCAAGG`, the log2 enrichment was 0.276.
`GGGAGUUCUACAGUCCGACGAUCCUGUGCUACACAUCGUAUGUACCGAAUCGGGCCCCCCCGGGGCCCCCCCGGGGCCCCCCCGGAAAGUAUUAUGUUACGCCGUUCGGAUCUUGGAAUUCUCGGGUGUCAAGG` has a log2 enrichment of -0.493.
The log2 enrichment of `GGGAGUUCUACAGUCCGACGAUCGCAGGAGGUAAAAACAAAUGGAAAUGCUUCGGAUAGUGGCAGGGGUGGGGGUUGCUAAGGAAAGGGUGGGAUGGGAGUGGGUAAAGAGUUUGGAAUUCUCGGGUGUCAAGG` is reported as 1.38.
For `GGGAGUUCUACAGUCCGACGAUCCACAGACAACACGCACCCACACAGACACAGAGGGAAGGGGUUGGGAUGGGGACAGGGCGCACAGCAGGGCGGGGUAGGACCCCAGCCCCUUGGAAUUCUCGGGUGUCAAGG`, the log2 enrichment was 0.0231.

Block 3
Target: Sal-like protein 4, full length isoform B (SALL4, Homo sapiens, UniProt Q9UJQ4-2, residues 1-616)
Technique: universal PBM
Molecule type: double-stranded DNA, one strand shown
Sample: in vitro
Tested at: not given
Notes: 8-mer, flanks averaged, mean of replicates
Direction: higher = stronger binding
The E-score of `GAACCCCC` is reported as -0.403.
`ATGACTCC` gave an E-score of -0.0419.
With `CCAAAACC` the E-score was -0.0183.
`CCTACCTA` gave an E-score of 0.0839.
The E-score of `AGTCCCGA` is reported as -0.215.
The E-score of `GATGTCCA` is reported as -0.0168.
The E-score of `GAAAAATA` is reported as 0.359.
`GACACACC` gave an E-score of -0.0998.
`TACGCGCA` has an E-score of -0.0804.
For `GTCGACAC`, the E-score was 0.0712.
`AACATCCT` gave an E-score of 0.0109.
With `TGGCTACA` the E-score was 0.151.
The E-score of `CTGTACTC` is reported as -0.0002.
`CGCAGCAC` gave an E-score of -0.235.
`ATGTTTTG` has an E-score of 0.258.
With `AAGCGTAC` the E-score was 0.0263.

Block 4
Target: CCND2, cyclin fold, Cln2 fusion (human)
Technique: yeast growth competition, sequencing
Sample: yeast
Notes: weak parent motif
Baseline: not given
Direction: higher = stronger binding
Parent: PKN2 docking peptide (human); DSTVTKLDFDLEP
`P13A`: “normalised enrichment score” 0.0888.
Under “normalised enrichment score”, `L7A` is recorded as -0.0592.
For `D1A`, “normalised enrichment score” read 0.224.
`T5A`: “normalised enrichment score” 0.583.
`K6A`: “normalised enrichment score” 0.0575.
`D10A`: “normalised enrichment score” 0.13.
`D8A` — result for “normalised enrichment score”: -0.0997.

Block 5
Target: RING finger protein unkempt homolog, zinc fingers 1-6, GST-SBP tag (UNK, Homo sapiens, UniProt Q9C0B0, residues 30-357)
Technique: RNA Bind-n-Seq
Molecule type: RNA
Sample: in vitro
Tested at: not given
Notes: RNA with constant flanks, ends assumed
Baseline: input RNA pool
Direction: higher = stronger binding
Residues (chain): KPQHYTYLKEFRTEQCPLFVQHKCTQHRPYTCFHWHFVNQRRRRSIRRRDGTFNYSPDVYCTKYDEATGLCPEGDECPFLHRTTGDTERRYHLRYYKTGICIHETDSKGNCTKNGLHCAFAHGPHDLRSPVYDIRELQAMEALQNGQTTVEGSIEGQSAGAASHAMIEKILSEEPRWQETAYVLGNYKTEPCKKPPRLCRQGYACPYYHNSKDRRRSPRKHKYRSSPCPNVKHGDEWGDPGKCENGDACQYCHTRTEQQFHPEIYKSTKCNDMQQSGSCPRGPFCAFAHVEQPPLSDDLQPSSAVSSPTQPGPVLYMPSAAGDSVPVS
`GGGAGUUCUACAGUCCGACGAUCAUCUAUUCCCCUCUUUUUAUUUCUGGGGCCGGUUUUUUCCUUUUUUUUUUAAUCCCUCCUCCGCUUUUUAUGCGCUCAUAAUCAAUUGUACCCAUUCCCUACAUAACGGGAGCAGUGAUCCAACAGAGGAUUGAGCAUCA` has a bound/input enrichment of 2.95 ratio.
For `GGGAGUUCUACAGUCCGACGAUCUCAACCUAUGCACAGUGAGCUGGUUAAGAAGAUCCUAGGCAACAAAGCUACCUUCAGCCCUACCGUCACUUUGGAACCUAGAAGAAGAAAAUUCCACAAACCAAUUACCAUGACCAUUCCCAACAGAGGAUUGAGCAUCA`, the bound/input enrichment was 0.415 ratio.
`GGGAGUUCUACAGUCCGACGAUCAGUGAAUGAGGUGGAGCUUCUGGUGAUGAAGGCCCUUUCGGUGGGGCUGGUGAAAGGCAGUACCGACGAGGUGGACAAACGAGUCCACAUGACCUGGGUGCAGCCCCGAGUGUUGGAUUUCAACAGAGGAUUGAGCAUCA` gave a bound/input enrichment of 0.092 ratio.
`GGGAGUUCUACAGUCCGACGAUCGACGACAAAAGAGUUGUACCUAAAGGAAAAGGAGAACAGAUUGCAAGGGAGCAUGGUAUCCGGUUUUUUGAGACUAGUGCAAAAGCAAAUAUAAACAUCGAAAAGGCGUUCCUCACGUUACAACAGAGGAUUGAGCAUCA` gave a bound/input enrichment of 0.685 ratio.
The bound/input enrichment of `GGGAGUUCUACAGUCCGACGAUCAUCUACGAAGAACUUGGCUAUGGCUGAUCUUUUUUAAAUUUAACUUUCUGAUGGACCCUGCCGUUUCCAGUUAAGUGCAGAUUCCUUACAGACAUAUAGAACAGCGCAUUCUUCUGUAGACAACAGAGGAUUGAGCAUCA` is reported as 1.13 ratio.
The bound/input enrichment of `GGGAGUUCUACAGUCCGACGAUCACCUUGAAGGAUAGGUUUUCUUUCUGAUGGGCCAAAGUACUGGAAGCAAAGUACUUUCUGCCGCCGCCCAUGCUUACUUGUGACACUUUUAAUAUGAAAUGUAUCCCCAGACCAAAUGUCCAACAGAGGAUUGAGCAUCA` is reported as 0.138 ratio.
`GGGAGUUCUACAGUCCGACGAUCGUAGCUUCUAGAGAUAAUUUUGAGGAUGAGACUGAAGAUGAUGAUCUGUUUGAAACUGAAUUCCGACAAUAUAAGAGAACAUACUACAUGACGAAGAUGGGCGUCGAUGUAGUAUCUGAUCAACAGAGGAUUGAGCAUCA` has a bound/input enrichment of 1.42 ratio.
`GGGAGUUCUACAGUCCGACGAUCUUAUGUGCCUGUAUUUUUUUAAAAUGGUACACCAGAAAAGGACUGGCAGUCUACUUCUACCACCGUUAAACUUCACCCUCUUUAAUUUCACAACAUAUUCUUUGGAAGCAGGAAGAAAUGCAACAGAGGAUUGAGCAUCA` gave a bound/input enrichment of 0.118 ratio.
With `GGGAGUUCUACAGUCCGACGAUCAAGUCUCAUUCGCCUUUGUCUUGUACUUCUGUGUUCAUUUUUUUUUUUUUUUUUGGCCCGAGUUUCCACUAUCCCAAUCAAAGAAUUACAGUACACAUCCCCAGAAUCCAUAAAUGUGUUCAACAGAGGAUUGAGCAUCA` the bound/input enrichment was 0.343 ratio.
`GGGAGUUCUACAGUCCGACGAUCUUUGACAAGGAUGGGAAUGGUUACAUCAGUGCGGCAGAACUGCGCCACGUCAUGACAAACUCCGGAGAAAAGCUAACAGAUGAAGAAGUAGAUGAAAUGAUCAGAGAAGCAGAUAUUGAUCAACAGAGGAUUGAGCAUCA` gave a bound/input enrichment of 0.581 ratio.
`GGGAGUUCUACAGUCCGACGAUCCUUAGUAGAUAAUUUGGGUGGUACUGAAGCACCUAUUAUCUCUUAUUUCUGUUCUCCCGGCUGUUAUGUUAAUUCCUCUGAUAUGUUAAAGUAAUGGGUGAGACCAGAAAAAGAAAUUUCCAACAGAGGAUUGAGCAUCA` has a bound/input enrichment of 0.256 ratio.

Mixed results
With `PhoQ, residues 284 288 289 292 302 303 TLASMF` the fold induction was 6.37 (PhoP, residues 12 14 15 18 19 GQALL (Escherichia coli, UniProt P23836); Sort-seq, measured: YFP reporter; E. coli; PhoQ-PhoP variant library, with: 10 µM Mg2+; baseline: high Mg2+ state, higher = stronger signaling).
